Experimental data gathered from unrelated publications.
Lines come from different studies, so protocols differ. “And” joins repeats or separate records; there may be more than shown. ± marks the error that the study gave.
TOP2A: DNA topoisomerase 2-alpha (TOP2A, Homo sapiens, UniProt P11388)
UniProt P05164, sequence (whole entry, looked up): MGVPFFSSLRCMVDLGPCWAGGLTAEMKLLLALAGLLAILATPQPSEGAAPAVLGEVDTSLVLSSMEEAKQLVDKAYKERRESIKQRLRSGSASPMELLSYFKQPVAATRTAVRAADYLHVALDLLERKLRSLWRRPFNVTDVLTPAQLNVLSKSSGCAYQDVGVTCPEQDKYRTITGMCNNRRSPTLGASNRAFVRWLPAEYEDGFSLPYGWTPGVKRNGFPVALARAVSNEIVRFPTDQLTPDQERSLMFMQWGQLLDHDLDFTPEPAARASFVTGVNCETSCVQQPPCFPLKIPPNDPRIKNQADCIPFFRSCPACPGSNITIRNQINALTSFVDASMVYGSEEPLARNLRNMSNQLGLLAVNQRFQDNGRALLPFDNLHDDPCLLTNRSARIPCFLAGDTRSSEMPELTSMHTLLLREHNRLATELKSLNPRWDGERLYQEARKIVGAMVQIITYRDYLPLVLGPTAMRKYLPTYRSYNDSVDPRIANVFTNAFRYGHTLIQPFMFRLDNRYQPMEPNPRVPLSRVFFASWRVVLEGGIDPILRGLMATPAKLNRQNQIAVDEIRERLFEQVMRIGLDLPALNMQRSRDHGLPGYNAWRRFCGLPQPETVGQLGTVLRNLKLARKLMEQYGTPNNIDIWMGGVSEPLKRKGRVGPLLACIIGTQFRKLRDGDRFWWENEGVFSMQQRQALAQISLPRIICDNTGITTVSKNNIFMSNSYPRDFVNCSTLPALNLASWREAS
UniProt P11388, sequence (whole entry, looked up): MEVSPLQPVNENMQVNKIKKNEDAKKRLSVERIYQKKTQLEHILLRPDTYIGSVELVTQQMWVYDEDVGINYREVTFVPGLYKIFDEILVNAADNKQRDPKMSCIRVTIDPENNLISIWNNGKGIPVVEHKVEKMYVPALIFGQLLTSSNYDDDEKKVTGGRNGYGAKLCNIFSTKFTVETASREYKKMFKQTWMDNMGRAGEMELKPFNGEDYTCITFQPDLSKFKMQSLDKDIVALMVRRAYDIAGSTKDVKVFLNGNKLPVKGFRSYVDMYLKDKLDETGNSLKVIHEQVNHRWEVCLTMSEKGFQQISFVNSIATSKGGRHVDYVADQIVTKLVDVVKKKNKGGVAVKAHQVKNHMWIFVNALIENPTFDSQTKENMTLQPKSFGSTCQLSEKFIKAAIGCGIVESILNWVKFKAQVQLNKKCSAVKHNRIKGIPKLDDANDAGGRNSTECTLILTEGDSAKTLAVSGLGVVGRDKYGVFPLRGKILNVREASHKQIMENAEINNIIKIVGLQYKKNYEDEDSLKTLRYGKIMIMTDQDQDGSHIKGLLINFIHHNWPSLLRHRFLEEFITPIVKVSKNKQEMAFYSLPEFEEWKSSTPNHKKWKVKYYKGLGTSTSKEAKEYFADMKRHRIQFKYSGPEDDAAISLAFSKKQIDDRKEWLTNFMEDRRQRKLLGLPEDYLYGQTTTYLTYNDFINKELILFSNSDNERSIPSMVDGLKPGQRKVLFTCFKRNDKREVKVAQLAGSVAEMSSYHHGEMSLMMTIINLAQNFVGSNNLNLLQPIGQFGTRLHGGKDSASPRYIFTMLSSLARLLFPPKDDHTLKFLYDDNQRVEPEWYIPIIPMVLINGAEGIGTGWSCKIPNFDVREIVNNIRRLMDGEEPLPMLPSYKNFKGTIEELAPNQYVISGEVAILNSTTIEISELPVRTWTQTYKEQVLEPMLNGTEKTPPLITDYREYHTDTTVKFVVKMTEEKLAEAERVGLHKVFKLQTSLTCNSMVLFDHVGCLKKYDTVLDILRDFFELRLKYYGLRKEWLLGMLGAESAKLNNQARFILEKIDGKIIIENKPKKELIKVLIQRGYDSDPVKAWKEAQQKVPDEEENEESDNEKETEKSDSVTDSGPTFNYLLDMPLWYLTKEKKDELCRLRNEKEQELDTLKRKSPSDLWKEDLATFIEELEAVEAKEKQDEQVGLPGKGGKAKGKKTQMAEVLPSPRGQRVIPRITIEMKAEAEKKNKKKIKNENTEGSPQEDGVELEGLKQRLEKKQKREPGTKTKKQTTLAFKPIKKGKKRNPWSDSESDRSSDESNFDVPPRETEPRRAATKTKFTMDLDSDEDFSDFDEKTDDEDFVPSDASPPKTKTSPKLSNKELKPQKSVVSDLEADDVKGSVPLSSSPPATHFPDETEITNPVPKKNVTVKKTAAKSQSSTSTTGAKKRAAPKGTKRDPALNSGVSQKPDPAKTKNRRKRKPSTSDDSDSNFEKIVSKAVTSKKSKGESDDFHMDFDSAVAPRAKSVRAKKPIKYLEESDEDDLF
UniProt P51575, sequence (whole entry, unmodified, looked up): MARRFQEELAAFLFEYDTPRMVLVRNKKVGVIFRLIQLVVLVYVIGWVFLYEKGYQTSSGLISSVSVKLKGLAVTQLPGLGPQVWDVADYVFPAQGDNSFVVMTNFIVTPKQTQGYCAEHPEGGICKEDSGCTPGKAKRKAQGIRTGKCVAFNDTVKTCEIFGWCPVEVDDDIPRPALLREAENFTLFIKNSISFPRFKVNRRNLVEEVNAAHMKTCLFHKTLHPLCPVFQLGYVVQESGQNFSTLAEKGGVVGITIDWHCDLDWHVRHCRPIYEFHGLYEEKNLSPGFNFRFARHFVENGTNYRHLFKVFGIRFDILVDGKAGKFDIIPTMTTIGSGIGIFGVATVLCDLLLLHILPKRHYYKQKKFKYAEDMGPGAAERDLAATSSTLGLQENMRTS
UniProt Q9H4A4, sequence (whole entry, looked up): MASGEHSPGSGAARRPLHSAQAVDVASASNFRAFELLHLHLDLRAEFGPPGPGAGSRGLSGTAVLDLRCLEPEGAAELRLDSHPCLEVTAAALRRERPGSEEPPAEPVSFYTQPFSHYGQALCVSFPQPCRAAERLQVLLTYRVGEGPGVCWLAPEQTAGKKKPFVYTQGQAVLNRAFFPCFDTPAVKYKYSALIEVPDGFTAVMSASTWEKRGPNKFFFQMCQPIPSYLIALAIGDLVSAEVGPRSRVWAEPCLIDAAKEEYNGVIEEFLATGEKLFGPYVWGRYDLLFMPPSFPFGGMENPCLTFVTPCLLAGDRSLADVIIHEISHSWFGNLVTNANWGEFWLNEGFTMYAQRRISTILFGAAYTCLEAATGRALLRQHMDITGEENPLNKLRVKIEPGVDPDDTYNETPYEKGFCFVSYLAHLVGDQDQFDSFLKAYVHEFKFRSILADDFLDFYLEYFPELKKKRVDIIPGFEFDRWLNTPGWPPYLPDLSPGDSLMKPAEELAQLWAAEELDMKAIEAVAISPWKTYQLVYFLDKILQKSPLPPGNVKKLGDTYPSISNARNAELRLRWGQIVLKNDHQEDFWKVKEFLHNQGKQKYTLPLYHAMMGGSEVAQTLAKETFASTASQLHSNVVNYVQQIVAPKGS
UniProt Q8NFU1, sequence (whole entry, looked up): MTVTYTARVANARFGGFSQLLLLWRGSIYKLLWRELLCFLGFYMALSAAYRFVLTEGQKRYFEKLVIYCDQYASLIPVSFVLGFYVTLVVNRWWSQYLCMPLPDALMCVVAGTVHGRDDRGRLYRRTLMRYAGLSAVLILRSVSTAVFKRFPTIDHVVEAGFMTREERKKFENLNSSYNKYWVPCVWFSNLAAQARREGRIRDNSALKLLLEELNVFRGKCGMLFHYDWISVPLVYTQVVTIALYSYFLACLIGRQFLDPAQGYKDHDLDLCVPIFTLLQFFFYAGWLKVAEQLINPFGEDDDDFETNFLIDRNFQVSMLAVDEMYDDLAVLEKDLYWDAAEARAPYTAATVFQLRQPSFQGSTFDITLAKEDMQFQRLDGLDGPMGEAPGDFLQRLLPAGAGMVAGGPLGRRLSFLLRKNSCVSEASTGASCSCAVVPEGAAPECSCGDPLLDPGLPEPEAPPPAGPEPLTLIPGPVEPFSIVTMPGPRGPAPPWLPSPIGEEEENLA
UniProt Q9NZQ7, sequence (whole entry, looked up): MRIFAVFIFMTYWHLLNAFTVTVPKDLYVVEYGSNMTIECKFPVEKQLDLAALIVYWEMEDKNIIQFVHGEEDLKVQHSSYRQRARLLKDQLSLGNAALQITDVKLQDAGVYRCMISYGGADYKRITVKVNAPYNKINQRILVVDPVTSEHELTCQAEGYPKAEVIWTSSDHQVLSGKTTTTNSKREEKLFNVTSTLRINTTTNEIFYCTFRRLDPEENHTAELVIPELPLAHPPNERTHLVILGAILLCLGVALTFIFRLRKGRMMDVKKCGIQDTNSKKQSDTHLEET

Compound	target	test	test system	setting	how to read	endpoint	value
CC[S+]([O-])c1nc(-c2ccccc2)cc(C(F)(F)F)n1 (stereo not drawn)	Importin subunit beta-1 (KPNB1, Homo sapiens, UniProt Q14974)	thermal shift	–	30 µM, 2 h	–	Tm1	40.7 °C
N#C/C(=C\c1ccc(O)c(O)c1)C(N)=S	Protein-glutamine gamma-glutamyltransferase (TGM2, Homo sapiens, UniProt P21980)	enzyme activity, inhibitor	–	concentration not given, with: DTT	reference: without DTT over with DTT	potency reduction	~17 fold
O=C(O)c1ccc(Nc2ncc3c(n2)-c2ccc(Cl)cc2C(c2c(F)cccc2F)=NC3)cc1	human Pim-2(h)	kinase activity	–	1 µM	–	remaining activity	101%
Nc1nc2c(ccn2[C@@H]2O[C@@H]3COP(=O)(O)O[C@H]3[C@H]2O)c(=O)[nH]1	anti-cGMP antibody	antibody binding, competitive cGMP EIA	–	concentration not given, acetylated samples	reference: EC50 cGMP over EC50 cpd, higher = stronger binding	relative binding affinity	0.101
O=c1nc(SCc2cc(F)cc(C(F)(F)F)c2)nc(SCc2ccc3ncsc3c2)[nH]1	TOP2A	decatenation	–	31.25 µM, replicate 2	–	decatenated DNA	56.2%
C=CC(=O)N1CCC(COCC(=O)N2CCN(c3nc(-c4cnc(N)nc4C(F)F)nc(N4CCOC[C@@H]4C)n3)CC2)CC1	LIM domain kinase 2 (LIMK2, Homo sapiens, UniProt P53671)	KINOMEscan	–	1 µM	–	remaining binding	100%
Nc1ncnc2c1ncn2[C@@H]1O[C@H](COP(=O)(O)CP(=O)(O)OP(=O)(O)O)[C@@H](O)[C@H]1O	P2X purinoceptor 1 (P2RX1, Homo sapiens, UniProt P51575, R139A)	calcium influx	–	3.16 µM	reference: ionomycin response	calcium influx	97% and 96.3% and 98.8%
NCCS(=O)(=O)O	Sodium- and chloride-dependent taurine transporter (SLC6A6, Homo sapiens, UniProt P31641, Y138A)	binding, microscale thermophoresis	–	125 µM, room temperature, with: 50 nM labelled protein	higher = more binding	normalised MST signal	-0.0214
O=C(COP(=O)(O)O)[C@@H](O)[C@H](O)[C@H](O)COP(=O)(O)O	Aminopeptidase B (Homo sapiens, UniProt Q9H4A4)	thermal proteome profiling, measured: RNPEP	HepG2 cell lysate	concentration not given, 57 over 37 °C	reference: compound over control	thermal stability ratio	0.522 and 0.171 and 0.583
CC(=O)Nc1ccc(O)cc1	Bromodomain-containing protein 4 (BRD4, Homo sapiens, UniProt O60885)	19F NMR, measured: tyrosine 97	–	746 µM	reference: free protein	chemical shift change	-0.22 ppm
COc1ccc(C(=O)/C=C/c2cccc(-c3cccc(-c4ccc(CNCCO)c(OC)n4)c3C)c2)cc1	Programmed cell death 1 ligand 1 (CD274, Homo sapiens, UniProt Q9NZQ7)	degrader, western blot	HL-60	1 µM	–	degradation	< 5%
CC(=O)NCCCC[C@H](NC(=O)[C@H](CC(=O)O)NC(=O)[C@H](CO)NC(C)=O)C(=O)Nc1ccc2c(C)cc(=O)oc2c1	human Y386F/Y782F mutant enzyme	substrate, fluorogenic	–	–	–	Km	69 ± 3 µM
[O-][S+]1CCCCS1 (stereo not drawn)	Superoxide dismutase [Cu-Zn] (SOD1, Homo sapiens, UniProt P00441, G94A)	LC-MS	human whole blood	10000 µM, 1 h, 37 °C	–	SOD1 monomer fraction	0%
O=c1nc(SCc2cc(F)cc(C(F)(F)F)c2)nc(SCc2cccc(C(F)(F)F)c2)[nH]1	TOP2A	decatenation	–	15.6 µM, replicate 1	–	decatenated DNA	36.4%
Nc1ncnc2c1ncn2[C@@H]1O[C@H](COP(=O)(O)OP(=O)(O)OP(=O)(O)O)[C@@H](O)[C@H]1O	Hexokinase-3 (HK3, Homo sapiens, UniProt P52790, E254A/R267A)	substrate	–	mutant E254A/R267A, with: glucose 0.5 mM	–	kcat	57 ± 7 s⁻¹
CC(=O)N1CCN(CCOc2ccc(C3CCN(C4=Nn5c(nnc5C(F)(F)F)CC4)CC3)cc2)CC1	Androgen receptor (AR, Homo sapiens, UniProt P10275)	antagonist, nuclear translocation	–	100 µM	reference: control	response	> 75%
O=c1nc(SCc2cc(F)cc(C(F)(F)F)c2)nc(SCc2ccc3ccccc3n2)[nH]1	TOP2A	decatenation	–	15.6 µM, replicate 1	–	decatenated DNA	100%

Compound	target	test	test system	setting	how to read	endpoint	value
O=c1cc(-c2ccc(OS(=O)(=O)[O-])cc2)oc2cc(OS(=O)(=O)[O-])cc(OCc3cccc(COc4cc(OS(=O)(=O)[O-])cc5oc(-c6ccc(OS(=O)(=O)[O-])cc6)cc(=O)c45)n3)c12.[Na+].[Na+].[Na+].[Na+]	Neutrophil elastase (ELANE, Homo sapiens, UniProt P08246)	–	cystic fibrosis patient sputum	low salt, with: DNase	–	concentration for HNE decrease	> 250 µM
Nc1ncnc2c1ncn2[C@@H]1O[C@H](CO[P@](=O)(O)O[P@](=O)(O)O[P@@](=O)(O)S)[C@@H](O)[C@H]1O	GUK1 (Homo sapiens, UniProt Q16774)	binding, isothermal titration calorimetry	–	molar ratio 2.17, fitted curve	–	ΔH	-0.429 kcal/mol
O=c1nc(SCc2cc(F)cc(C(F)(F)F)c2)nc(SCc2csc3ccc(Cl)cc23)[nH]1	DNA topoisomerase 2-beta (TOP2B, Homo sapiens, UniProt Q02880)	decatenation	–	15.6 µM, replicate 2	–	decatenated DNA	5.1%
O=C(O)c1ccc(O)cc1	Bestrophin-2a (BEST2, Homo sapiens, UniProt Q8NFU1)	whole-cell patch clamp	HEK293 transiently expressing channel	concentration not given, membrane potential -40 mV	–	current density	-130 pA/pF and -68 pA/pF and -98.3 pA/pF and -47.6 pA/pF and -104 pA/pF and -52.4 pA/pF and -99.2 pA/pF
Nc1nc2c(ncn2[C@@H]2O[C@H](COP(=O)(O)OP(=O)(O)O)[C@@H](OP(=O)(O)OP(=O)(O)O)[C@H]2O)c(=O)[nH]1	UDP-galactopyranose mutase (glf, Escherichia coli, UniProt P37747)	SILAC mass spectrometry, measured: glf protein	–	concentration not given	reference: heavy over light	log2 fold change	1.14
Cc1ccccc1C1CC(=O)c2c(C)nc(N)nc2C1 (stereo not drawn)	DNA (cytosine-5)-methyltransferase 3A, PWWP domain (DNMT3A, Homo sapiens, UniProt Q9Y6K1)	binding, affinity selection mass spectrometry	–	–	reference: other proteins in batch	fold enrichment	0.895
O=c1nc(SCc2ccc(C(F)(F)F)cc2)nc(SCc2ccc3sccc3c2)[nH]1	TOP2A	decatenation	–	31.25 µM	–	mean decatenated DNA	0%
c1coc(-c2n[nH]cc2-c2ccnc3ccccc23)c1	Cell cycle protein kinase DBF2 (DBF2, Candida albicans, UniProt Q59KM8)	kinase binding, MIB/MS competition	Candida albicans lysate	10 µM	reference: DMSO, negative = stronger binding	log2 fold change	0.17
CC(C)NC[C@@H](C(=O)N1CCN(c2ncnc3c2[C@H](C)C[C@H]3O)CC1)c1ccc(Cl)cc1	Serine/threonine-protein kinase N1 (PKN1, Homo sapiens, UniProt Q16512)	inhibitor	–	–	–	Hill slope	-0.753
NC/C(=C\F)COc1cccc(Cn2c(=S)[nH]c(=O)c3[nH]cnc32)c1	Myeloperoxidase (MPO, Homo sapiens, UniProt P05164)	inhibitor, cholesteryl ester hydroperoxide	–	0.0185 µM	reference: control	LDL lipid peroxidation	41.3% and 25.9% and 106% and 10.5%
CCOc1cccc(C2CC(=O)Nc3c2c(C)nn3-c2ccc3nncn3n2)c1 (stereo not drawn)	DNA damage-binding protein 1 (DDB1, Homo sapiens, UniProt Q16531)	binding, surface plasmon resonance	–	1.88 µM	–	SPR response	2.36 RU
c1ccc(CCCCCOCCc2ccc3[nH]cnc3c2)cc1	ATP2A2 (Sus scrofa, UniProt P11607)	ATPase activity	–	–	–	concentration of maximal activation	10 µM
C[C@@H](O)[C@H](NC(=O)[C@H](Cc1ccc(O)cc1)NC(=O)[C@H](Cc1ccc(O)cc1)NC(=O)[C@H](CO)NC(=O)[C@H](CCCNC(=N)N)NC(=O)[C@H](Cc1c[nH]cn1)NC(=O)[C@@H](N)Cc1c[nH]c2ccccc12)C(=O)N[C@@H](Cc1c[nH]c2ccccc12)C(=O)N[C@@H](CC(N)=O)C(=O)NCCCC[C@H](NC(=O)[C@H](CCCCNC(=O)[C@H](CC(N)=O)NC(=O)[C@H](Cc1c[nH]c2ccccc12)NC(=O)[C@@H](NC(=O)[C@H](Cc1ccc(O)cc1)NC(=O)[C@H](Cc1ccc(O)cc1)NC(=O)[C@H](CO)NC(=O)[C@H](CCCNC(=N)N)NC(=O)[C@H](Cc1c[nH]cn1)NC(=O)[C@@H](N)Cc1c[nH]c2ccccc12)[C@@H](C)O)NC(=O)[C@H](CC(N)=O)NC(=O)[C@H](Cc1c[nH]c2ccccc12)NC(=O)[C@@H](NC(=O)[C@H](Cc1ccc(O)cc1)NC(=O)[C@H](Cc1ccc(O)cc1)NC(=O)[C@H](CO)NC(=O)[C@H](CCCNC(=N)N)NC(=O)[C@H](Cc1c[nH]cn1)NC(=O)[C@@H](N)Cc1c[nH]c2ccccc12)[C@@H](C)O)C(=O)N[C@@H](CCCCN)C(=O)N[C@@H](CCCCN)C(N)=O	Programmed cell death 1 ligand 1, with PD-1 (CD274, Homo sapiens, UniProt Q9NZQ7)	PD-1 binding, inhibitor, competitive ELISA	–	2.5 µM	reference: PBS over 2% BSA	fold reduction of blocking	1.4 fold
NC(N)=O	Urea transporter 1 (Homo sapiens, UniProt Q13336)	substrate, [14C] equilibrium exchange, fast flow	human cells	concentration not given, uninhibited	–	exchange half-time	~37 ms
Cc1nc(CSc2nc(SCc3cc(F)cc(C(F)(F)F)c3)nc(=O)[nH]2)cs1	TOP2A	decatenation	–	125 µM, replicate 2	–	decatenated DNA	7%
S=C(NCc1ccc2c(c1)OCO2)N1CCN(c2ncnc3c2oc2ccccc23)CC1	Tyrosine-protein kinase receptor UFO (AXL, Homo sapiens, UniProt P30530)	GAS6-stimulated phosphorylation, inhibitor, Western blot	maturing neuronal cultures	1 µM, 1 h, 4-week cultures, with: GAS6	–	AXL phosphorylation	decreased
